{"data": "Measured values gathered from unrelated publications", "note": "Parts stem from different laboratories: compare values within a part only."}
{"data": "Study 1", "target": "Replicase polyprotein 1ab, nsp13 helicase (rep, Severe acute respiratory syndrome coronavirus 2, UniProt P0DTD1)", "action": "inhibitor", "tested at": "20 µM"}
{"Compound": "NC(=O)OC[C@@H]1[C@H](NC(=O)/C(=N\\OCC(=O)O)c2csc(N)n2)C(=O)N1S(=O)(=O)O", "inhibition": "4.97%"}
{"Compound": "CCn1cc(C(=O)O)c(=O)c2cc(F)c(N3CCN(C)CC3)cc21", "inhibition": "2.08%"}
{"Compound": "CCCc1c2oc(C(=O)O)cc(=O)c2cc2c(=O)cc(C(=O)O)n(CC)c12", "inhibition": "4.09%"}
{"Compound": "CCN(CCCCOC(=O)c1ccc(OC)c(OC)c1)C(C)Cc1ccc(OC)cc1 (centres unmarked)", "inhibition": "2.18%"}
{"Compound": "Clc1ccc(C2=CCC[C@@H]3CC[C@H]2N3)cn1", "inhibition": "11.2%"}
{"Compound": "CCOc1ccc(-n2c([C@@H](C)N(Cc3cccnc3)C(=O)Cc3ccc(OC(F)(F)F)cc3)nc3ncccc3c2=O)cc1", "inhibition": "-4.7%"}
{"Compound": "Cc1cc(C)c(Nc2ccnc(Nc3ccc(C#N)cc3)n2)c(C)c1", "inhibition": "8.09%"}
{"Compound": "Cc1ccc2c(Br)cc(Br)c(OC(=O)c3ccccc3)c2n1", "inhibition": "-7.79%"}
{"Compound": "CCc1cc2c(cc1CC)CC(NC[C@H](O)c1ccc(O)c3[nH]c(=O)ccc13)C2", "inhibition": "0.46%"}
{"Compound": "CC(=O)N[C@H](Cc1ccc2ccccc2c1)C(=O)N[C@H](Cc1ccc(Cl)cc1)C(=O)N[C@H](Cc1cccnc1)C(=O)N[C@@H](CO)C(=O)N[C@@H](Cc1ccc(O)cc1)C(=O)N[C@H](CCCNC(N)=O)C(=O)N[C@@H](CC(C)C)C(=O)N[C@@H](CCCNC(=N)N)C(=O)N1CCC[C@H]1C(=O)N[C@H](C)C(N)=O", "inhibition": "9.54%"}
{"Compound": "Cc1cc(OCc2nc(-c3ccccc3Cl)cs2)ccc1OCC(=O)O", "inhibition": "1.99%"}
{"Compound": "NC1=NCC2c3ccccc3Cc3ccccc3N12 (centres unmarked)", "inhibition": "2.75%"}
{"Compound": "CC(=O)N1CCC(NC(=O)c2ccc(F)cc2)CC1", "inhibition": "0.1%"}
{"Compound": "Cn1c2cc([S+](C)[O-])sc2c2cnn(Cc3cccc(N)c3)c(=O)c21 (centres unmarked)", "inhibition": "8.27%"}
{"Compound": "N=C(N)N/N=C/c1c(Cl)cccc1Cl", "inhibition": "0.7%"}
{"Compound": "CN(C)N(C)C(=O)[C@@]1(Cc2ccccc2)CCCN(C(=O)[C@@H](Cc2c[nH]c3ccccc23)NC(=O)C(C)(C)N)C1", "inhibition": "4.14%"}
{"Compound": "COc1cc(OC)c(C(=O)CCCCN2CCC3(CC2)NC(=O)NC3=O)cc1NS(=O)(=O)c1ccc(C(F)(F)F)cc1", "inhibition": "0.19%"}
{"Compound": "O=C(Nc1ccc(S(=O)(=O)Nc2nccs2)cc1)C(c1ccccc1)c1ccccc1", "inhibition": "-0.56%"}
{"Compound": "O=C1NCCNC1c1cccs1 (centres unmarked)", "inhibition": "-1.71%"}
{"Compound": "COc1ccc2[nH]c3c(-c4cccc5ccccc45)nccc3c2c1", "inhibition": "6.11%"}
{"Compound": "O=c1ccc2[nH]cc(C3=CCNCC3)c2[nH]1", "inhibition": "4.02%"}
{"Compound": "CNCCc1cnc[nH]1", "inhibition": "-0.67%"}
{"Compound": "COc1nc(C)cnc1NS(=O)(=O)c1cccnc1-c1ccc(-c2nnco2)cc1", "inhibition": "5.06%"}
{"Compound": "Cc1cc(OCCN2CCOCC2)nn1-c1ccc2ccccc2c1", "inhibition": "0.38%"}
{"Compound": "CC1(C)OC(=O)C(OCC2CC2)=C1c1ccc(S(C)(=O)=O)cc1", "inhibition": "5.58%"}
{"data": "Study 2", "target": "Histone acetyltransferase KAT6A, winged helix 2, GST fusion (KAT6A, Homo sapiens, UniProt Q92794, residues 85-181)", "technique": "protein binding microarray", "molecule type": "double-stranded DNA, one strand shown", "matrix": "in vitro", "tested at": "not given", "setting": "8-mer, flanks averaged, mean of 2 arrays, mostly near background", "baseline": "not given", "reading": "higher = stronger binding", "Construct (chain)": "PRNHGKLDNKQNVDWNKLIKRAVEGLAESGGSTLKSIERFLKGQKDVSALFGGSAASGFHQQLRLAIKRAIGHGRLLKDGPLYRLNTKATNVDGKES"}
{"Sequence": "CAGTACCG", "E-score": -0.136}
{"Sequence": "CATTAGCA", "E-score": 0.0668}
{"Sequence": "AGTTATAT", "E-score": -0.0408}
{"Sequence": "ATTTAAAC", "E-score": 0.00244}
{"Sequence": "CGATTCGC", "E-score": 0.162}
{"Sequence": "GTCAAGTA", "E-score": -0.191}
{"Sequence": "TAGGTGGA", "E-score": 0.00202}
{"Sequence": "CCCTCACG", "E-score": 0.131}
{"data": "Study 3", "target": "RNA binding protein fox-1 homolog 2, RRM domain, GST-SBP tag (RBFOX2, Homo sapiens, UniProt O43251-10, residues 100-194)", "technique": "RNA Bind-n-Seq", "molecule type": "RNA", "matrix": "in vitro", "tested at": "365 nM", "setting": "natural RNA segment, single round, ends assumed", "baseline": "no-protein control", "reading": "higher = stronger binding", "Target sequence (chain)": "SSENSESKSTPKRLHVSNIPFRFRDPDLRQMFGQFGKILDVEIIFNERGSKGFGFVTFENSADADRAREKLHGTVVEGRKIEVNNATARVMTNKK"}
{"Sequence": "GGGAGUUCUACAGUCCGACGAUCGAUUAGAGCCGCAUAAUAUCCCUCUCUUGGCUAUUGAAUAAGUGGUUCACAUACCCAACCCUGUAGAAGUUAGAAGAUGGUCGGUCAUGUCUGUAUGUUCUUGUUUGCAUUGGAAUUCUCGGGUGCCAA", "RBNS enrichment (R)": 3.57}
{"Sequence": "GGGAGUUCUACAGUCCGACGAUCAGCUGGCCUCUCUCAUCUCUCAGAUCAUGUCUAUCUCAGGGGCCACAAUAAGAAACAUACUCUCCAUAGUGCCAAGGCUACACAGAAACCCUGCCUCAAAAAAACAAGCAUGGAAUUCUCGGGUGCCAA", "RBNS enrichment (R)": 0.662}
{"Sequence": "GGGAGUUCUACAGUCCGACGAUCAGUGUCUUUCUUUUCUCUUUCUAGCUGAAUAGUUCUAUUUCAAAUGUUCCCUUAAAACUCAGACUUCAACACAUCAGUUAAAUUUGUACUUUAGUUGUGGGUGUUAGAGUUGGAAUUCUCGGGUGCCAA", "RBNS enrichment (R)": 0.684}
{"Sequence": "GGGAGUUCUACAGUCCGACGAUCGCUCCCUAGCGCUAACCUAGGAACCGCCGCUGCCUGCUGGGGGGCCACGCCCCUCAUGCCCUUGUCCCAGGCCCGGGGCCUUCAGCGUUGAACACUUCCUUGCUUUUUUCUGGAAUUCUCGGGUGCCAA", "RBNS enrichment (R)": 0.314}
{"Sequence": "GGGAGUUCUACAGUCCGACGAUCGAUCGUGUUUCUGACGUUUCUCUUCCUUGCCUGGACUGCCUUUGACAAGGCAGAAAUGAACAUGAAAAGUCCCCAGGAGAGGGGAGCUGUGUAGUGAGGGAUACUGAGGGUGGAAUUCUCGGGUGCCAA", "RBNS enrichment (R)": 0.63}
{"Sequence": "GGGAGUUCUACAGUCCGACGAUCUUUGAGCACAUGUUAAUUUUUUUCCCUCUUUCCCCACUUUUAUUUUUUUAAAUAAGGGAUAACAUAUUCUUUAUAGAAUAGUGCUUGUUCUGGAAGAGAUUCAGGUGAAAUGGAAUUCUCGGGUGCCAA", "RBNS enrichment (R)": 0.416}
{"Sequence": "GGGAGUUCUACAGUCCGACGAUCUCUCUGCUGCAAGUGGACAAGAGUAUUUCAGAGAUCACUGAAGCCUGAGUCCAUGCACCUGCCCCAGGAGGGGGCCAUUGUCCUAGGGACCGCCUAUCACGCCGACUGCUUGGAAUUCUCGGGUGCCAA", "RBNS enrichment (R)": 0.486}
{"Sequence": "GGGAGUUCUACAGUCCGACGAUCGGAGUUGUAGUAGAAAAGGCAUCUGCUUUUCAGAAAGACUAUUAUUUCCUAACCAUGAGAAGCAGACUCUAAUAUUCAUAUUUAAACAAAGCAAUUUUUUUUAUUACUAAUGGAAUUCUCGGGUGCCAA", "RBNS enrichment (R)": 0.617}
{"data": "Study 4", "target": "Interferon regulatory factor 7, full length, phosphomimetic (IRF7, Homo sapiens, UniProt Q92985, residues 1-503, S471D/S472D/S475D/S476D/S477D/S483D/S484D/S487D)", "technique": "protein-binding microarray", "molecule type": "double-stranded DNA, one strand shown", "matrix": "in vitro", "tested at": "2200 nM top", "setting": "60-bp whole probe", "with": "salmon DNA 0.4 mg/ml", "baseline": "random background probes", "reading": "higher = stronger binding", "shared flanks, not repeated": "GCCTAGCAC … GTGCTAGGTCTTGATTCGCTTGACGCTGCTG", "UniProt Q92985, sequence (whole entry, unmodified, looked up)": "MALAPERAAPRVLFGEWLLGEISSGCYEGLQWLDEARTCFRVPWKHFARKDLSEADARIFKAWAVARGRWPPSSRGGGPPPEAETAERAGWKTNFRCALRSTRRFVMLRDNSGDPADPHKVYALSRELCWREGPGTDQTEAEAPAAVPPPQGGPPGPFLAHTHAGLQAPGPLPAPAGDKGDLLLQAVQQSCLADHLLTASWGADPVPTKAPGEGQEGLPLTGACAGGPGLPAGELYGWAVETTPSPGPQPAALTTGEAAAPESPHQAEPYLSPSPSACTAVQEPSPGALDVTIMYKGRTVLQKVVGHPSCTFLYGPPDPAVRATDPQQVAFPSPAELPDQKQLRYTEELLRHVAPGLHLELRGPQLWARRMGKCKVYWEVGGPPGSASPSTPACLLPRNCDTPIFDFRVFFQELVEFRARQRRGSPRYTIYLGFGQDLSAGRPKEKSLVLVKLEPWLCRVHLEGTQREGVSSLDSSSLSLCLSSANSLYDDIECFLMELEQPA"}
{"Sequence": "GACGGATTCCTACTGCTGAC", "fitted relative affinity [z-score]": 0.776}
{"Sequence": "TTAGTTCTCCTTCTCCTTTA", "fitted relative affinity [z-score]": 2.15}
{"Sequence": "TAAGATTTCAGTTTCGATTA", "fitted relative affinity [z-score]": 8.03}
{"Sequence": "GACGGACGGCTTATCCTGAC", "fitted relative affinity [z-score]": -0.33}
{"Sequence": "CTGGCTTTGACTCTTTCTGT", "fitted relative affinity [z-score]": 0.693}
{"Sequence": "TAGGTTTTCTGGTTCCCATT", "fitted relative affinity [z-score]": 4.44}
{"Sequence": "TTCTATCTCTGTTTTTGCTT", "fitted relative affinity [z-score]": 2.09}
{"Sequence": "GGTCCCACCTCTTGGTGGGA", "fitted relative affinity [z-score]": -0.718}
{"data": "Mixed results"}
{"Structure (SMILES)": "CCOC(=O)/C=C(C)/C=C/C=C(C)/C=C/c1c(C)cc(OC)c(C)c1C", "target": "Replicase polyprotein 1ab, main protease (rep, Severe acute respiratory syndrome coronavirus 2, UniProt P0DTD1)", "effect on": "enzyme activity", "action": "inhibitor", "tested at": "20 µM", "setting": "primary screen", "quantity": "inhibition", "result": "25.6%"}
{"note": "For quick reference, copied from above (study 1):"}
{"Compound": "CCN(CCCCOC(=O)c1ccc(OC)c(OC)c1)C(C)Cc1ccc(OC)cc1 (centres unmarked)", "inhibition": "2.18%"}
{"Compound": "Clc1ccc(C2=CCC[C@@H]3CC[C@H]2N3)cn1", "inhibition": "11.2%"}
{"Compound": "CCOc1ccc(-n2c([C@@H](C)N(Cc3cccnc3)C(=O)Cc3ccc(OC(F)(F)F)cc3)nc3ncccc3c2=O)cc1", "inhibition": "-4.7%"}
{"Compound": "Cc1cc(C)c(Nc2ccnc(Nc3ccc(C#N)cc3)n2)c(C)c1", "inhibition": "8.09%"}
{"Compound": "Cc1ccc2c(Br)cc(Br)c(OC(=O)c3ccccc3)c2n1", "inhibition": "-7.79%"}
{"Compound": "CCc1cc2c(cc1CC)CC(NC[C@H](O)c1ccc(O)c3[nH]c(=O)ccc13)C2", "inhibition": "0.46%"}
{"Compound": "CC(=O)N[C@H](Cc1ccc2ccccc2c1)C(=O)N[C@H](Cc1ccc(Cl)cc1)C(=O)N[C@H](Cc1cccnc1)C(=O)N[C@@H](CO)C(=O)N[C@@H](Cc1ccc(O)cc1)C(=O)N[C@H](CCCNC(N)=O)C(=O)N[C@@H](CC(C)C)C(=O)N[C@@H](CCCNC(=N)N)C(=O)N1CCC[C@H]1C(=O)N[C@H](C)C(N)=O", "inhibition": "9.54%"}
